Measurements of several laboratories.
Parts stem from different laboratories: compare values within a part only.

Sample 1 — method: protein-binding microarray; form: double-stranded DNA, one strand shown; medium: in vitro; concentration: not given; direction: higher = stronger binding
Target: TATA-box-binding protein 1 (TBP1, Arabidopsis thaliana, UniProt P28147, residues 1-200, full length assumed)
Notes: k-mer, scored over probes, only values ≥0.25
Residues (chain): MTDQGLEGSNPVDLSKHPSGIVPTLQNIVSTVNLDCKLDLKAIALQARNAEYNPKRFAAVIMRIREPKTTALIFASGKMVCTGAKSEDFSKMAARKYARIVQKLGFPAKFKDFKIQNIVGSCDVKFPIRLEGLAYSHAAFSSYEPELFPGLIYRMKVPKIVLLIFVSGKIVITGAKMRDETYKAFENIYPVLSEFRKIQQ
| Sequence | E-score |
| --- | --- |
| GTAATAA | 0.31 |
| CGGTATA | 0.261 |
| AATATTG | 0.357 |
| GAATATA | 0.443 |
| ATAGATA | 0.276 |
| TAATACA | 0.311 |
| ATAAACG | 0.268 |
| TTAAGAA | 0.284 |
| ACTATAA | 0.394 |
| CAGTATA | 0.329 |
| GTCTTTA | 0.301 |
| TAAAACA | 0.317 |
| GGGTATA | 0.364 |
| ATATTAG | 0.407 |
| CCTTAAA | 0.369 |
| ATAAACA | 0.377 |
| AAATAGT | 0.304 |
| ATTTAAG | 0.451 |
| ATTAAAG | 0.379 |
| AGACTAT | 0.253 |
| CAAATAA | 0.26 |
| CAATTAA | 0.293 |
| TATAATA | 0.461 |
| AGTATTA | 0.335 |
| AATATAC | 0.413 |

Sample 2 — method: RNA Bind-n-Seq; form: RNA; medium: in vitro; concentration: 200 nM; notes: whole 134-nt RNA, ends assumed; together with: 150 mM LiCl; baseline: input library; direction: higher = stronger binding; all molecules: 7-deaza-guanosine replaces G
Target: Ras GTPase-activating protein-binding protein 1, full length (G3BP1, Homo sapiens, UniProt Q13283)
UniProt Q13283, sequence (whole entry, looked up): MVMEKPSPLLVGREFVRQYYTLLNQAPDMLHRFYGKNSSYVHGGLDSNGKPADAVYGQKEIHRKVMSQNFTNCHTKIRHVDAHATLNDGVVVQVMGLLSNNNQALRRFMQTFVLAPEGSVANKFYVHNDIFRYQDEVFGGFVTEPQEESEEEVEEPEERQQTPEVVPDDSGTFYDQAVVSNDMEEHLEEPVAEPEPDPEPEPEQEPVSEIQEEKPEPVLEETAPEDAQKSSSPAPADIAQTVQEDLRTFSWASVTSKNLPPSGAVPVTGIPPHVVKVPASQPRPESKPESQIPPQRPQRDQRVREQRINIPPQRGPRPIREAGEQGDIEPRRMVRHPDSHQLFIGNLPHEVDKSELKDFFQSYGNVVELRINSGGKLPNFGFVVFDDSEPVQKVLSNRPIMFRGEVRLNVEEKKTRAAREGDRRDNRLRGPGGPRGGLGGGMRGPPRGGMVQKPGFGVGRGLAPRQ
All sequences stand within: GGGAGUUCUACAGUCCGACGAUC … UGGAAUUCUCGGGUGUCAAGG
| Sequence | log2 enrichment |
| --- | --- |
| UCAAGUCCUGUGCUACACAUCGUAUGUACCGAAUCGGAAAAAGGUUUGGAAAGGAAAGUAUUAUGUUACGCCGUUCGGAUCUGCACUUCC | -0.69 |
| UCCUCAAGUCCUGUGCUACACAUCGUAUGUACCGAAUCGGGUGGUGGGUGGGAAAGUAUUAUGUUACGCCGUUCGGAUCUGCACUUCCAG | 0.719 |
| CAAGUCCUGUGCUACACAUCGUAUGUACCGAAUCGGUGGAAAAAAAGGAAAAAGGAAAGUAUUAUGUUACGCCGUUCGGAUCUGCACUUC | -1.08 |
| AUGUUCUUGAAUACUUAGCAAACAUACCAGCAUCCCAAAGUCACCAAGAUAAACCCUCCUACUCCAACAUCACAUGAUCUUCUAAUUCUA | 1.38 |
| CAAGUCCUGUGCUACACAUCGUAUGUACCGAAUCGGGCCCGGCCCGGGCCCGGGGAAAGUAUUAUGUUACGCCGUUCGGAUCUGCACUUC | -1.22 |
| GCAGGAAGUAAAAACAAAUGGAAAUGAUUCGGAUAGUGGCAGGGGUGGGGGUUGCUAAGGAAAGGGUGGGAUGGGAGUGGGUAAAGAGUU | -0.208 |
| AAGUCCUGUGCUACACAUCGUAUGUACCGAAUCGGGGAAAAAGGGGUGGGGAGGGGAAAGUAUUAUGUUACGCCGUUCGGAUCUGCACUU | 0.278 |
| CACAGACAACACGCACCCACACAGACACAGAGGGAAGGGGUUGGGAUGGGGACAGGGCGCACAGCAGGGCGGGGUAGGACCCCAGCCCCU | 0.249 |

Sample 3 — method: protein-binding microarray; form: double-stranded DNA, one strand shown; medium: in vitro; concentration: 940 nM top; notes: 60-bp whole probe; together with: salmon DNA 0.4 mg/ml; baseline: random background probes; direction: higher = stronger binding; all sequences stand within: GCCTAGCAC … GTCTTGATTCGCTTGACGCTGCTG
Target: Interferon regulatory factor 5, full length, phosphomimetic (IRF5, Homo sapiens, UniProt Q13568-2, residues 1-514, S451D/S453D/S456D/S462D)
| Sequence | fitted relative affinity |
| --- | --- |
| TTAGATCTCGGTATCGGTTAGTGCTAG | 5.53 z-score |
| GACGATATGGGGTTTCGAGACGTGCTA | 2.06 z-score |
| TCAAAGTTCTTTTTTTCACTGTGCTAG | 0.729 z-score |
| TAGGCTCTGTGCTTTCCTGATGTGCTA | -0.13 z-score |
| TTAGGTTTCAGTCTCGGTTAGTGCTAG | 8.06 z-score |
| TTAGGTTTCGACAGTGGGTTAGTGCTA | 7.9 z-score |
| GTCGGTATCGGTCTCGGGACGTGCTAG | 11.5 z-score |
| TCAGGACTGGGTCTCGGTTAGTGCTAG | 1.29 z-score |
| GACGGTTTCGGGTATCGGGATGTGCTA | 9.64 z-score |
| GACAGACTGGACTTTCGGGACGTGCTA | 0.323 z-score |
| TTAGATTTCGGGTTTCGAATAGTGCTA | 2.32 z-score |
| TAAGGTTTCGACTATCGGTTAGTGCTA | 6.82 z-score |
| TCAGGTTGAACATGAACACTGTGCTAG | -0.468 z-score |
| TTAGGTTCCGGTATCGGTTAGTGCTAG | 6.8 z-score |
| AGTCTCTTCTGGGACTCATGGTGCTAG | 0.524 z-score |
| TTAGGACTCGACTTTCGGTTAGTGCTA | 2.71 z-score |
| GACGGGATCGACACTGGGGACGTGCTA | 0.0238 z-score |
| TCACTTTTTGCACTCTCACTGTGCTAG | 1.87 z-score |
| GACGGACTGCTACTGCTGACGTGCTAG | -0.617 z-score |

Sample 4 — method: protein binding microarray; form: double-stranded DNA, one strand shown; medium: in vitro; concentration: not given; baseline: not given; direction: higher = stronger binding
Target: Histone acetyltransferase KAT6A, winged helix 1, GST fusion (KAT6A, Homo sapiens, UniProt Q92794, residues 1-85)
Notes: 8-mer, flanks averaged, mean of 2 arrays, mostly near background
Construct (chain): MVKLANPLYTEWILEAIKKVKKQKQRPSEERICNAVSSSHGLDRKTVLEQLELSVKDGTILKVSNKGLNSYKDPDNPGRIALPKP
| Sequence | E-score |
| --- | --- |
| AAGCTCAT | -0.235 |
| CCACACGC | 0.0975 |
| AAGGATCT | -0.209 |
| GCGAGTGA | 0.123 |
| AATCCCGC | 0.349 |
| AAAACAGC | -0.0287 |
| ATGCGTAC | 0.156 |
| AACAGCTA | -0.108 |
| AAGACTCA | -0.246 |
| GGCACGTA | -0.00121 |
| CTGAACTA | -0.0484 |
| GATACATC | -0.115 |
| CCCGCCCC | 0.355 |
| AATACATC | -0.0961 |
| AAGTCATA | -0.237 |
| CAGTTAAA | -0.237 |
| ACCCTACT | -0.151 |
| AAGAGTGT | -0.251 |
| CACTATGC | 0.0572 |
| AGGTCGAA | -0.00927 |
| ATTCGTCG | -0.0986 |
| AATGTTGG | -0.148 |
| CGGGGGGA | -0.00431 |
| CTCGGCAG | 0.098 |
| AACGATGA | -0.0761 |

For quick reference, copied from above (sample 4):
| Sequence | E-score |
| --- | --- |
| AATACATC | -0.0961 |
| CTCGGCAG | 0.098 |
| CAGTTAAA | -0.237 |
| ATTCGTCG | -0.0986 |
| CCCGCCCC | 0.355 |
| GCGAGTGA | 0.123 |
| AGGTCGAA | -0.00927 |
